Experimental data collected from several papers.
Numbered parts are unrelated; each lists some results of a single study.

Sample 1 — method: protein-binding microarray; molecule type: double-stranded DNA, one strand shown; sample: in vitro; concentration: 250 nM; setting: 60-bp whole probe; together with: salmon DNA 0.4 mg/ml; baseline: random background probes; direction: higher = stronger binding; all sequences stand within: GCCTAGCAC … GTCTTGATTCGCTTGACGCTGCTG
Target: Interferon regulatory factor 5, full length, phosphomimetic (IRF5, Homo sapiens, UniProt Q13568-2, residues 1-514, K96S/S451D/S453D/S456D/S462D)
Oligonucleotide	log fluorescence
GACGGCTTCGGGACTGGGGACGTGCTA	-0.285 z-score
GACGATTACAGTTCCGAGACGTGCTAG	0.167 z-score
TTAGATTTCAGAGTGGATTAGTGCTAG	0.371 z-score
TCCCATTAAATTTTAATAACGTGCTAG	0.27 z-score
AATCAACTTTTTTTAATTGAGTGCTAG	0.962 z-score
GACGGACTGGGACTGGGAACGTGCTAG	-0.732 z-score
GACGATATCAGATTGGAGACGTGCTAG	0.579 z-score
TTAGGCTCCCTTTTCCTTTAGTGCTAG	-0.22 z-score
TCAACTTTCCAATTGTCACTGTGCTAG	1.06 z-score
TTAGATTTCGGGTTTCGACTAGTGCTA	6.97 z-score
GACCGTTCCGGTTTCGGGACGTGCTAG	4.81 z-score
TTAGGTTCCCTCTTCCTTTAGTGCTAG	0.0665 z-score
TCACTATTATATATATCACTGTGCTAG	1.51 z-score
CCTTGTGTTACTTTCTACTTGTGCTAG	2.53 z-score
TGGGATTTTCCCATGAGTCTGTGCTAG	-0.158 z-score
TCATCTCTGCTCTTTTCAACTGTGCTA	0.736 z-score
GACGGACTGGGGTTGCGGGACGTGCTA	-0.378 z-score
TCATTTTTGCTTACGATACTGTGCTAG	1.83 z-score
TCACAATTCTCTTTTCAACTGTGCTAG	0.898 z-score

Sample 2 — method: RNA Bind-n-Seq; molecule type: RNA; sample: in vitro; concentration: 365 nM; baseline: no-protein control; direction: higher = stronger binding
Target: RNA binding protein fox-1 homolog 2, RRM domain, GST-SBP tag (RBFOX2, Homo sapiens, UniProt O43251-10, residues 100-194)
Setting: natural RNA segment, single round, ends assumed
All sequences stand within: GGGAGUUCUACAGUCCGACGAUC … UGGAAUUCUCGGGUGCCAA
Construct (chain): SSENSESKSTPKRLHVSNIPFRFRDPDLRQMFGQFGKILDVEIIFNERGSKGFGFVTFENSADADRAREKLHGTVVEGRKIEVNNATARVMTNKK
Oligonucleotide	RBNS enrichment (R)
AUGGCAAUACUUUAGGGCAGAGAUAAAACCUUUUGGUAUUUUAGCUAGCCCCCAAAUCAAAAGCACUGUAUAGCAUUUCACACCGAGCCCCUCACCAAAACUCACACAGU	0.319
CAAGAGGGGACCACAUAGUCUCUGUUGGCAUUUCUUUGUGGUGUCUGUCUGGACAUGCUUCCUAAAAACAGACCAUUUUCCUUAACUUGCAUCAGUUUUGGUCUGCCUUA	3.59
CUCUAAUCCUCAAACUAAGCCACCGUUUGGACUGCUAGUGUCACAGUUCGGGUGUUCCAUUGCACCCCUGUGCAGAUCUUUCCAGACUUGGCAACUUUACUUGGCUGAAU	0.229
UGUGUCUGAAGACAGUGACAGUGUACUCAUAUACAUAAAGAAAUCUUUUUUUAAAAAAGAGAGAAAAGAAAAACUAGUUGGUGGACAUGGUGGGUGACACGCCUUUAAUC	0.4
UGAGACACGAUGCCGAGACCUCAAGCCCUGAGGGGCAGUCCCAAAACCCUUACAGUGAAGAUGUUUACUCAUUGCCCCCACCUCUGGUCCACACUAGAAAGAAGCUCGCC	0.354
GUUUAACCCUCCCUAGUUGAAUGUUAUUUUCUUCUUGUUCCAUUAAGUCAGAAUACAAAUCAGCACAGAUAUUCGAAUGUUUCCAAUAUUUUAAAAUGUAAUGUUACUUA	1.26
UUCUGAGAGUGUGACUUUUCAAGGCGAAUGAUGGGGAAGGGUUCCCCAGUCCCCACAGUGGCCCCACCUCUGGGCCCUGCACCAGAGCCCUUCUGUGUCACGGCGGGCUG	0.343
UAAGAAGUAAAAUACAUCAGCAGAUUUUCAUACUAGUAUGUUGUAAUGCUGUCUUUUCUAUGGUGUAGAAUCUUUCUUUCUGAUAAGGAACGUCUCAGGCUUAGAAAUAU	0.504

Sample 3 — method: protein binding microarray; molecule type: double-stranded DNA, one strand shown; sample: in vitro; concentration: not given; baseline: not given; direction: higher = stronger binding
Target: Histone acetyltransferase KAT6A, winged helix 1, GST fusion (KAT6A, Homo sapiens, UniProt Q92794, residues 1-85)
Setting: 8-mer, flanks averaged, mean of 2 arrays, mostly near background
Target sequence (chain): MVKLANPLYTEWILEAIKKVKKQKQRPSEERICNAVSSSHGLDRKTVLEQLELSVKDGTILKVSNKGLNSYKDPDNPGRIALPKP
Oligonucleotide	E-score
CACATTTA	-0.167
CCCCGATC	-0.0086
TCGGAGAA	0.0625
GGTGTATA	0.0125
TCCAGTCA	-0.00877
GTCGGGAA	0.176
AAGTATAA	0.0223
ATACCTAC	-0.0115
CCGGATTA	0.0377
ACTGTACG	0.0848
CACTTCGC	-0.0999
TGCTACAA	-0.222
AGACCAAT	-0.178
ACCTAAAA	-0.0402
ATAGGTGC	-0.0468
GCAAGGTA	-0.0649
GGGCAACA	0.029
CCACCTTC	-0.24
CAAACTGG	-0.332
ATCACTTG	-0.213
AGTTTCAC	-0.0851
CACAAGAA	-0.142
GGCCCCTA	0.107
ACAAACAG	-0.252
ACTCAGCT	-0.101

Sample 4 — method: RNA Bind-n-Seq; molecule type: RNA; sample: in vitro; concentration: 100 nM; baseline: input RNA pool; direction: higher = stronger binding
Target: RING finger protein unkempt homolog, zinc fingers 1-6, SBP tag (UNK, Homo sapiens, UniProt Q9C0B0, residues 30-357)
UniProt Q9C0B0, sequence (30-357, looked up): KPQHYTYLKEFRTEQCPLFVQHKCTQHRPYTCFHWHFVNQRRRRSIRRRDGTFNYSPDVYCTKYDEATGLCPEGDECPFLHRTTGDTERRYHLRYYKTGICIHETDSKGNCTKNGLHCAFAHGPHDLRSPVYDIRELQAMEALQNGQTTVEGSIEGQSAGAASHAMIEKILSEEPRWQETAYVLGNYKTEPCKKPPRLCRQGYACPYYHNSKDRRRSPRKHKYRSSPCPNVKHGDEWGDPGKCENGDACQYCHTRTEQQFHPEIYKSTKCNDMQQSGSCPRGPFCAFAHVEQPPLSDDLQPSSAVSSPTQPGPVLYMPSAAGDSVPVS
Setting: RNA with constant flanks, vertebrate orthologous sites, ends assumed
All sequences stand within: GGGAGUUCUACAGUCCGACGAUC … CAACAGAGGAUUGAGCAUCA
Oligonucleotide	bound/input enrichment
CUACGGGCAGGGUGGUGGAGCCUAGGCCCUGCACCCACCAGCCACUUCAACCAGGCCAUUUAGUUCCAUGUUUUUUAUUUAACAGUGCCCUUACUUGUAUGUGCGUCCCAGACUGGAGAU	1.09 ratio
AUCCUGGUUGCUUUUUGUCACCUUGGUGAGGUAAAGGCUCCCUUGGGAUUUUGUUGGCACUAGAUGCCAGCCACCCAUAAUAAGUCUUGUCACACUUCAUGUCAUUUCGUUUCAUUUCUU	0.113 ratio
AAUUUUUUAAAGUUUUUUAAUUUAAUUUUUCCUUUCGGGGGUAAAGUUUGCUCUACCAAAUAGUGAUCGUAACAAAUUGAUCUGUUUUGGAUGUUGCUAUAGUGACAUGCAGUUAUACAU	0.464 ratio
AAGUUUACUUUAUGCCGUGGACUCCGUACCGAACUGACACGCUCAUCGAGUACUCCUCGCUCGACGACUUCCAGAACUCGCGGCAAACCACCACGUAUAAACUGCCACAUCGAGUGGACG	0.161 ratio
ACUGAAUAGGCAUUUUACAUACCACAUCAAAGCCUUGUUGUUUUGUUUUUUACUUAUUUACUGCUUACCAGGUUUCUGCAUGAAAGACAAAGGACUUCCAUGCUUAAAGUUAAUAUGGUC	0.631 ratio
GAAAGUCCCCAUUGUCACUGAGAACCACCACAUCUGACUUUUACAUUUGGUCUCAGAAUUUAAGUUCCUGCCCUGUUGGGUUUUUUUUUUUUUUUAAACAGUUUUCAAAAGUUCUUAAAG	0.744 ratio
UGUCCUUGUUAAGCACUGCGGUCCAGACCGUGUCUGACUUAGUUAACCUAGGGGAUUUUAUAGUUUUACUUUAAUGAAGUCUGGACUAACACAGAGCUGUGAGGAGGACGGUCCCUCUCC	0.598 ratio
AUCCUCUACUUAAAUUGGUAUUUUCAGACGAUAGGAAGCUUUUUUUUUUUUUUUUUACAGUUUAGUGUCUGGUUUCUCCAUGGAAGACUAAACUCAUGCUUAUAGCUAAAUGUGGUCUUU	0.537 ratio

A few entries again (sample 2):
Oligonucleotide	RBNS enrichment (R)
CUCUAAUCCUCAAACUAAGCCACCGUUUGGACUGCUAGUGUCACAGUUCGGGUGUUCCAUUGCACCCCUGUGCAGAUCUUUCCAGACUUGGCAACUUUACUUGGCUGAAU	0.229
UGUGUCUGAAGACAGUGACAGUGUACUCAUAUACAUAAAGAAAUCUUUUUUUAAAAAAGAGAGAAAAGAAAAACUAGUUGGUGGACAUGGUGGGUGACACGCCUUUAAUC	0.4
UGAGACACGAUGCCGAGACCUCAAGCCCUGAGGGGCAGUCCCAAAACCCUUACAGUGAAGAUGUUUACUCAUUGCCCCCACCUCUGGUCCACACUAGAAAGAAGCUCGCC	0.354
